Assay results from different studies.
Parts stem from different laboratories: compare values within a part only. Substitutions count along the parent as printed.

Study 1
Target: Histone acetyltransferase KAT6A, winged helix 2, GST fusion (KAT6A, Homo sapiens, UniProt Q92794, residues 85-181)
Technique: protein binding microarray
Molecule type: double-stranded DNA, one strand shown
Medium: in vitro
Tested at: not given
Setting: 8-mer, flanks averaged, mean of 2 arrays, mostly near background
Baseline: not given
Reading: higher = stronger binding
Target sequence (chain): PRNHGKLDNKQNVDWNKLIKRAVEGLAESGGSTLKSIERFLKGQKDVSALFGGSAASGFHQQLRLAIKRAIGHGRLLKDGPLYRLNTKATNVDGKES
Oligonucleotide	E-score
GGCGTCAC	-0.0307
CATCCTAC	-0.0491
ACATAGGT	0.0091
AGTACTGG	-0.115
TAGATCTA	-0.0135
AACACAGA	0.0868
ACGTTCTG	-0.0143
CGTAATCC	-0.0585
AGCACGGA	-0.112
GCGGCCCA	0.111
TAACCGAA	-0.000545
AAGGTCTG	-0.0816
TCCGGGCA	0.143
AACCCGTC	-0.125
ACAACGGA	0.071
CTGCCACA	0.0131
CAGGGTGG	0.0264
GAAAATGA	-0.0541
ACTTGATG	-0.0734
AAGAATAC	0.0248
ATGCCTTG	0.0823
CCATCGAA	-0.134
GAACTTAA	-0.0842

Study 2
Target: ABI1, truncated, D143A, DHFR fusion (Arabidopsis thaliana)
Technique: DHFR PCA, deep sequencing
Medium: yeast
Setting: methotrexate growth selection, single substitutions
Added: (+)-ABA 17 µM
Baseline: wild-type fitted maximum
Reading: higher = stronger binding
Parent: PYL1, truncated, DHFR fusion (Arabidopsis thaliana); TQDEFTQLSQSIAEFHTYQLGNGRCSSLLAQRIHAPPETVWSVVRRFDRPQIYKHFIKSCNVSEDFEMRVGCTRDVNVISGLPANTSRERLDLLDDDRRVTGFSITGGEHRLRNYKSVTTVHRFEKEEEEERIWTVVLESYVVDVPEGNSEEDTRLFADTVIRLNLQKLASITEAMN
Change	relative binding score
Q2N	83.8%
F103G	-11%
A170F	13.4%
R49C	80.3%
L28R	56.3%
R69V	85.7%
V78T	55.9%
C25H	-2.93%
R45Y	9.93%
T1W	80%
P83R	11.2%
F15A	0.438%

Study 3
Target: Sal-like protein 4, full length isoform A (SALL4, Homo sapiens, UniProt Q9UJQ4, residues 1-1053)
UniProt Q9UJQ4, sequence (whole entry, looked up): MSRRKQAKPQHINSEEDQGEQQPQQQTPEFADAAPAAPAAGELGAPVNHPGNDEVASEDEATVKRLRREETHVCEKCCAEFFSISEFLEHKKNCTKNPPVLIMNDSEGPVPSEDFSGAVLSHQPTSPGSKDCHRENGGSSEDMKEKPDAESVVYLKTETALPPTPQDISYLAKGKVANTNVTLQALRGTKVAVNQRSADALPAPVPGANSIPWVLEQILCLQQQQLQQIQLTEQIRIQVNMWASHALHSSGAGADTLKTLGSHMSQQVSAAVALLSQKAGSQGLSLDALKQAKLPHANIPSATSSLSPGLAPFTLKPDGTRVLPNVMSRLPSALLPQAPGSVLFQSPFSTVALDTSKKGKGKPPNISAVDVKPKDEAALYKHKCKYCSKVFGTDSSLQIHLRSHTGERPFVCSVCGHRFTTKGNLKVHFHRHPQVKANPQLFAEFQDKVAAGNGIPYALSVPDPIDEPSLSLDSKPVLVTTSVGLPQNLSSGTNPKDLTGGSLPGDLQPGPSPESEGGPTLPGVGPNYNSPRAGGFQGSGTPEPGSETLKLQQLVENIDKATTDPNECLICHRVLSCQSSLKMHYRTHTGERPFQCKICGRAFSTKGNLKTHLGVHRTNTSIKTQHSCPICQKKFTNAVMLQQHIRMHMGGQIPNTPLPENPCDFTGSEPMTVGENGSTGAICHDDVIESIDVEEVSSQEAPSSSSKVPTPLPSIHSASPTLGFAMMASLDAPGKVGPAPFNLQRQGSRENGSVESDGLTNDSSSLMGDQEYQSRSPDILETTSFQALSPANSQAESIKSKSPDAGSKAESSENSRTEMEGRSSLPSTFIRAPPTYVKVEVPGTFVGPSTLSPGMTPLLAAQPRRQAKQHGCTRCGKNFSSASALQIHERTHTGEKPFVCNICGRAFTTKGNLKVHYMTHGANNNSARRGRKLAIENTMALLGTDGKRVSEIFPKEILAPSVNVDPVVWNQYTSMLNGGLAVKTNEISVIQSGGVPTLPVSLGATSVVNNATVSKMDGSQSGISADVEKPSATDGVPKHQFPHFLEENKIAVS
Technique: universal PBM
Molecule type: double-stranded DNA, one strand shown
Medium: in vitro
Tested at: 600 nM
Setting: 8-mer, flanks averaged, mean of replicates
Reading: higher = stronger binding
Oligonucleotide	E-score
CAGGCTTC	-0.183
GGATCAAA	0.119
ACTCACAA	0.0679
CGAGCTAG	-0.0491
AAGTCGAG	-0.0909
GACAGCTC	-0.298
AGTTGCCC	-0.111
AGCGTTCA	-0.124
GACATACC	-0.0587
ATTTGGGG	0.0216
ACAACTCT	0.0692
ACCTAAAG	0.0367
ACCATTAC	0.114
GGTTTTAC	0.0062
CACAAAGC	-0.00301
AGGGAAAG	-0.0347
CAGACTCC	-0.285
CGGAGGAG	-0.221
ACACGTGG	-0.121
GCCATGCC	-0.164
CGGACCCC	-0.428
AACTACTT	0.123

Study 4
Target: Interferon regulatory factor 3, full length, phosphomimetic (IRF3, Homo sapiens, UniProt Q14653, residues 1-427, S386D/S396D/S398D/S402D/T404D/S405D)
UniProt Q14653, sequence (whole entry, unmodified, looked up): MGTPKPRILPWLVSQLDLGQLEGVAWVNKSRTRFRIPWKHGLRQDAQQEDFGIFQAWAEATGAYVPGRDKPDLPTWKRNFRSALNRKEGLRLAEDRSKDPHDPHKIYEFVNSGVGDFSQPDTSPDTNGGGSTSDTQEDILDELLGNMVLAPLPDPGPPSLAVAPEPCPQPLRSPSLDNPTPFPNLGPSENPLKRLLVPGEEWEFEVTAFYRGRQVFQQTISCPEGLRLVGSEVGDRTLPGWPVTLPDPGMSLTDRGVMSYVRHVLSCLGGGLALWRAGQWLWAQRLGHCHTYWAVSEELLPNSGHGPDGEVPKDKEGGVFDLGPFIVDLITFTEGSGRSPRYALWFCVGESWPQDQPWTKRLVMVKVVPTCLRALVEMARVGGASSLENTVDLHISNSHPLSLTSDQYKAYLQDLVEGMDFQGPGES
Technique: protein-binding microarray
Molecule type: double-stranded DNA, one strand shown
Medium: in vitro
Tested at: 2540 nM top
Setting: 60-bp whole probe
Added: salmon DNA 0.4 mg/ml
Baseline: random background probes
Reading: higher = stronger binding
Shared flanks, not repeated: GCCTAGCAC … GTCTTGATTCGCTTGACGCTGCTG
Oligonucleotide	fitted relative affinity [z-score]
GACGATATCGGGTATCTAGACGTGCTA	0.25
TTAGGATTGGACACTGGGTTAGTGCTA	-0.53
GACGGTATCGGGTTTCGGAACGTGCTA	4.66
GACGGACTGGGTTTCGGGAGGTGCTAG	0.541
GACGGTCTCCTACAGCTGACGTGCTAG	0.333
TTAGGTTTGCTTCTCCTTTAGTGCTAG	1.42
TTAGGACTGCTTATGCTTTAGTGCTAG	-0.563
TTTGGTCTCGGTTTCGGTTAGTGCTAG	5.41
GACGGTTTCGGGTTTCGGGATGTGCTA	5.96
GTCGATTTCGGGTATCGAGACGTGCTA	2.84
TTAGGTTTCGGGTTTCCGTTAGTGCTA	5.96
AAAGATATAAATGTAACATGGTGCTAG	-0.236
AGCATCTTCAAGACTCATAATGTGCTA	-0.502
GACGATCTCACACTGGAGACGTGCTAG	0.382
TTAGGTCTCCTTTTGCTTTAGTGCTAG	3.38
TTATAACTGGGGTATCGATTAGTGCTA	-0.0752
TTAGGTTTCTTTTATTCAAAGTGCTAG	3.61

Study 5
Target: DDIT3, bZIP domain (human)
Technique: DHFR protein complementation
Medium: yeast
Setting: single substitutions, most at no-binding floor
Baseline: wild-type JUN-FOS pair
Reading: higher = stronger binding
Parent: JUN, bZIP domain (human); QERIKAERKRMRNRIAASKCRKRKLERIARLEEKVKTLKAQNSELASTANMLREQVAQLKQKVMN; partner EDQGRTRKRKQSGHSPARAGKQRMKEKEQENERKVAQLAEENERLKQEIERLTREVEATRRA
Change	binding fitness [natural log]
E44S	-0.105
E54H	-0.0915
A40L	-0.0413
K39R	0.115
S47W	-0.0199
I28Y	-0.0436
N42C	-0.982
K39D	-0.371
Q41P	-1.5
N42L	-1.06
K39H	-0.046
K39N	-0.217
Q41T	-0.146

Study 6
Target: RNA binding protein fox-1 homolog 2, RRM domain, GST-SBP tag (RBFOX2, Homo sapiens, UniProt O43251-10, residues 100-194)
Technique: RNA Bind-n-Seq
Molecule type: RNA
Medium: in vitro
Tested at: 365 nM
Setting: natural RNA segment, single round, ends assumed
Baseline: no-protein control
Reading: higher = stronger binding
Construct (chain): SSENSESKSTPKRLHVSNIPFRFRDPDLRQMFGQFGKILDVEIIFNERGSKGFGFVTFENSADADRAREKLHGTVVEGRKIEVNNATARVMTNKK
Oligonucleotide	RBNS enrichment (R)
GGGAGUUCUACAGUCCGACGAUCUCCAGAUGCCUGAGCCCCUUCACUCCGACAGCACCAGCGCCUAAUGCAGCCUUUUCAUUCUUGCCAUUAGGAAAUCUGUGGACUUCUAGCCUGUGUUUUAAACCAGCCAUUGGAAUUCUCGGGUGCCAA	0.312
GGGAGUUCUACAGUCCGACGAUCUUUAAUUAUUCCUCCUAGUGAGCUUGCAAAGCAUAGACUAAAUUAAACCCUAAUGUUAGAUGUCAGUAUAAAGCCCUUAGAAUUUUUCCUCAAGGACCCCUUCUUCCUUUUGGAAUUCUCGGGUGCCAA	0.547
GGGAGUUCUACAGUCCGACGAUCCAGGGGGCUGUGUCUGCGUGUCAGUUUGUGUCUGUCUCGGGGAAUGUGUGUCUGUGGCCCAAGCAGGUGACAGGAAGAGAUGGGGGGCCUCAACCAACUUAGUGACUUGUUGGAAUUCUCGGGUGCCAA	2.62
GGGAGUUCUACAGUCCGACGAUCAUGUACAGUUAUCUAAGUUAAUUUAAAGUUGUUUGUGCCUUUUUAUUUUUGUUUUUAAUGCUUUGAUAUUUCAAUGUUAGCCUCAAUUUCUGAACACCAUAGGUAGAAUGUGGAAUUCUCGGGUGCCAA	1.2
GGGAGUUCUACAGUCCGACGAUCCUGCUCUGCUGCCUCUUUGCCACUUCCUGGAAGCCUUCCUCCCUGGAAGAACAGCCUUUUGCAUCUGAGGCGACCAUUUUUACACCAUGCAGAUCUUCGUGGUUAUCAUCUGGAAUUCUCGGGUGCCAA	0.419
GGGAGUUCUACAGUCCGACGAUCGGGCAGGGCUGGGACAGGCUGGCAGGUGGACACUGCCUGCAGGGUCUUCCCUGAUCCCACCAUCCUACCUACGCCCCCCCUCCCCUCAGCCCUAGUCUCCUCCAUUGACAUGGAAUUCUCGGGUGCCAA	1.01
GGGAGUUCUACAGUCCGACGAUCCCUGGUACUAGUGUAGCGACUUUUUUUCUCCUCUUUCUUCUAGUACAUAUUGAUAGGUAUAACAUAAUUAAGGUUUAAAAAAAAUUAGACAUAGUUAUUCAGAUUUAGGAUGGAAUUCUCGGGUGCCAA	0.407
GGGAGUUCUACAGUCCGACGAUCUGUGUGCCCACCCCUGACAUCUGUCCAUGUUGUCUAGACUCCACCUGUCCACGGUUCCUUUGUUCUAGGCUGUGAACCCGUCCUUGUCUCUUCCCCCACUGUGUGUUUAAUGGAAUUCUCGGGUGCCAA	0.502
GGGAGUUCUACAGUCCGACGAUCCCUCAGGGUAUCAAAGGAGCCCUUUGCUGUGAACCUGGCUAGGAAUGCAAGAUGACUCAGAGUAUAGGUCAGGGUCAGCACUGGAUAAGGUCAUGAGGGCAGUCUCCCAGUGGAAUUCUCGGGUGCCAA	1.59
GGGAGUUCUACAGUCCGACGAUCGAAUGGAUCCUUUAUUUUUAAAAUAAUCAAAAUUUGAAUAAUUGCUACACAUGGUUGCUAUUUAUUUCUACAUGAAGCUUAUUCUCACUUGGAGGUUCUGAAGAUUCUGUUGGAAUUCUCGGGUGCCAA	0.438
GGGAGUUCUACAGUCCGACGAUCGCCCUGACUGCUCUUCCACAGGUCCUGAGUUCAAUUCCCAGCAACCACAUGGUGGUUCCCAACCAUCUGUAAUGGGAUCUGAUGCCCUCUUCUGGUGUGUCUGAAGACAAUGGAAUUCUCGGGUGCCAA	0.244
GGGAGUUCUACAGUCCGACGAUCACUGGAAAGAGCUUUAGGACAGCUUAGAUGCCGAGUGGGCGAAUGCCAGACCAAUGAUACCCAGAGCUACCUGCCGCCAACUUGUUGAGAUGUGUGUUUGACUGUGAGAGUGGAAUUCUCGGGUGCCAA	1.62

Study 7
Target: CCNA2, cyclin fold, Cln2 fusion (human)
Technique: yeast growth competition, sequencing
Medium: yeast
Setting: strong parent motif
Baseline: not given
Reading: higher = stronger binding
Parent: SAMHD1 docking peptide (human); ASKSRVQLFKDDP
Change	normalised enrichment score
ASKSRVQLFKDWP [D12W]	3
ASKSRVRLFKDDP [Q7R]	3.75
ASKSRVLLFKDDP [Q7L]	0.606
ASKSEVQLFKDDP [R5E]	-0.259
ASKSRVQLAKDDP [F9A]	0.0749
ASKSRWQLFKDDP [V6W]	0.469
ASKSRVQLFCDDP [K10C]	1.97
ASKSRVTLFKDDP [Q7T]	0.913
ASKSRVQLFKDGP [D12G]	2.56
ASKSRVQLFKRDP [D11R]	1.6
ASKSRVQLFEDDP [K10E]	1.12
ASKSRVQDFKDDP [L8D]	-0.0426
AAKSRVQLFKDDP [S2A]	2.79
ASKSRVQLFADDP [K10A]	2.24
ARKSRVQLFKDDP [S2R]	3.09
ASDSRVQLFKDDP [K3D]	-0.114
ASKSRVQLFQDDP [K10Q]	2.05
AFKSRVQLFKDDP [S2F]	3.38

For quick reference, copied from above (study 1):
Oligonucleotide	E-score
ACATAGGT	0.0091
ACTTGATG	-0.0734
GAAAATGA	-0.0541
ACAACGGA	0.071
AACACAGA	0.0868
CGTAATCC	-0.0585
AAGAATAC	0.0248
CAGGGTGG	0.0264
GGCGTCAC	-0.0307
TCCGGGCA	0.143
AGTACTGG	-0.115
GAACTTAA	-0.0842
